Published values from different studies.
Each line is one published result; not all experiments were run side by side. “And” joins repeats or separate records; there may be more than shown. Numbers after ± are the reported error.
bglA: bglA (Thermotoga maritima, UniProt Q08638)
Gria1/Gria2: Glutamate receptor AMPA 1/2 (Gria1/Gria2, Rattus norvegicus, UniProt P19490+P19491)
Sodium- and chloride-dependent glycine transporter 2: Sodium- and chloride-dependent glycine transporter 2 (Homo sapiens, UniProt Q9Y345)
17-beta-hydroxysteroid dehydrogenase 13: 17-beta-hydroxysteroid dehydrogenase 13 (Homo sapiens, UniProt Q7Z5P4)
CA12: Carbonic anhydrase 12 (CA12, Homo sapiens, UniProt O43570)
GAP50: Glideosome-associated protein 50 (GAP50, Plasmodium falciparum, UniProt Q8I2X3)

OC[C@H]1c2[nH]cnc2[C@H](O)[C@@H](O)[C@@H]1O — ΔH (bglA; ITC; pH 6.8, 25 °C): -4.4 ± 0.335 kcal/mol
COc1ccc(C2(C(=O)N3CCC(Nc4nc5ccccc5c(=O)[nH]4)CC3)CC2)cc1 — Emax (MRGPRD (Homo sapiens, UniProt Q8TDS7, F242A); miniGq recruitment, agonist, BRET; HEK293T; F242A mutant; baseline: wild type): 32.5 ± 3.4%
CCCCCCCCCCCCCCCc1cccc(OCC)c1C(=O)Nc1ccc(Cl)c(C(F)(F)F)c1 — SPR binding response (KAT5 (Homo sapiens, UniProt Q92993); SPR; 0.07 µM; higher = more binding): 0.138 RU
COC(=O)Cc1cc2c(cc1C(=O)c1cccc(I)c1)OCO2 — deactivation time constant (Gria1/Gria2; glutamate-evoked current, whole-cell patch clamp; HEK-293T; concentration not given, weighted tau, 1 ms pulse, added: glutamate): 2.6 ± 0.2 ms
Cc1cccnc1-c1cccc(C#N)c1 — inhibition after jump dilution (Uridine nucleoside ribohydrolase (Trichomonas vaginalis, UniProt A2FTT0); enzyme activity, 19F NMR; 200 µM, 1-fold dilution): 100%
COc1ccn2c(C(C)=O)cc(C(=O)Nc3cc(C(C)O)cc(-c4cnn(C5CC5)c4)c3F)c2c1 (stereo not drawn) — ΔTm (BRD9 (Homo sapiens, UniProt Q9H8M2); thermal stability, DSF; 200 µM): 3.8 °C
CCCCCCCCCCCCC/C=C/C=O — isoTOP-ABPP competition ratio (T-complex protein 1 subunit eta (Homo sapiens, UniProt Q99832); competitive isoTOP-ABPP, item: CCT7 cysteine peptide; Ramos soluble proteome; 100 µM, added: iodoacetamide probe; baseline: DMSO over compound-treated, higher = stronger cysteine blockade): 1
COC(=O)[C@@]1(C)C=C(C(=O)Nc2cccc(C(=O)Nc3ccc(Nc4nccc(-c5cccnc5)n4)c(C)c3)c2)C(=O)CC1 — remaining activity (MAPK8 (Homo sapiens, UniProt P45983); enzyme activity, inhibitor; 0.5487 µM, 18 h, unit not given, added: GSH 10 mM pre-incubation; baseline: vehicle): 0.103
O=C(O)Cc1cc2c(cc1C(=O)c1ccc(Cl)cc1Cl)OCO2 — current amplitude (Gria1/Gria2; glutamate-evoked current, whole-cell patch clamp; HEK-293T; concentration not given): 61 ± 4 pA
O=C(O)C[C@@H]1C[C@H](O)CN1 (relative stereo) — remaining specific binding (Sodium- and chloride-dependent glycine transporter 2; MS binding competition; 10 µM): 96.3 ± 4.2%
CC(=O)c1cnc(NS(=O)(=O)c2ccc(C(F)(F)F)c(Cl)c2)nc1 — oxidized product ratio (17-beta-hydroxysteroid dehydrogenase 13; enzyme activity; human hepatocytes, HSD17B13 siRNA, culture medium; 96 h; baseline: scramble siRNA control): 0.249 and 0.231 and 0.27 and 0.286
Brc1ccc(C[N+]2=C3SCCN3C[C@@H]2c2ccccc2)cc1 — Emax (acetylcholine-gated chloride channel (Haemonchus contortus, UniProt A0A219KWM7); ion current, agonist, two-electrode voltage clamp; Haemonchus contortus, Xenopus oocytes; added: acetylcholine 500 µM; baseline: acetylcholine response): 25%
Cc1c(Cl)c(=O)oc2cc(OCCCCCCSC#N)ccc12 — selectivity ratio (CA12; stopped-flow CO2 hydration; baseline: Ki CA I over Ki CA XII): > 2180
CC(C=CC=C(C)C=CC1=C(C)CCCC1(C)C)=CC=O — plasma membrane localization (Rhodopsin (RHO, Homo sapiens, UniProt P08100, T17M); immunostaining, item: opsin; COS-7 transfected; 0.05 µM, unit not given; baseline: surface over total stained cells): 0
COc1ccccc1C1(O)CCN(CCCCCC2=C3C(C)=CC(C)=[N+]3[B-](F)(F)n3c(C)cc(C)c32)CC1 — remaining specific binding (Sodium- and chloride-dependent glycine transporter 2; MS binding competition; 10 µM): 48.9 ± 5.5%
CCOC(=O)c1ccc2c(c1)C1CC(C)(N2)c2c(C)nc3ccc(C(=O)OCC)cc3c21 (single isomer, unassigned) — kon (GAP50; surface plasmon resonance): 2710 M⁻¹ s⁻¹
COC(=O)Cc1cc2c(cc1C(=O)c1ccc(Cl)cc1Cl)OCO2 — current amplitude (Gria1/Gria2; glutamate-evoked current, whole-cell patch clamp; HEK-293T; concentration not given, pH 7.4, holding potential -60 mV, added: 10 mM glutamate): 212 ± 22 pA
CC(C)[C@@H]1NC(=O)[C@H](Cc2ccccc2)NC(=O)CSC[C@@H](C(N)=O)NC(=O)[C@H](CCC(=O)O)NC(=O)[C@H](CO)NC(=O)[C@H](Cc2c[nH]c3cccc(Cl)c23)NC(=O)[C@H](C2CCCCC2)NC(=O)[C@H](C(C)C)NC(=O)[C@H](Cc2ccc(O)cc2)NC(=O)[C@H](CC(=O)O)NC(=O)[C@H](Cc2c[nH]c3ccccc23)NC(=O)[C@H](Cc2ccc(N)nc2)NC(=O)[C@H](Cc2c[nH]c3ccc(Cl)cc23)NC(=O)[C@H](CCC(=O)O)NC1=O — remaining activity (Interleukin-1 receptor-like 2 (IL1RL2, Homo sapiens, UniProt Q9HB29); IL-8 release, antagonist; A-431; 20 µM, 18 h, added: IL-36 10 ng/mL; baseline: untreated): 7.54%
COC(=O)Cc1cc2c(cc1C(=O)c1cccc(Br)c1)OCO2 — desensitization time constant (Gria1/Gria2; glutamate-evoked current, whole-cell patch clamp; HEK-293T; concentration not given, weighted tau, 500 ms pulse, added: glutamate): 4.8 ± 0.3 ms
O=C(NC[C@@H](Cc1ccc(F)cc1)N1CCC(O)(C(F)(F)F)CC1)C1(c2ccc(Cl)cc2)CCCC1 — EC50 fold change (TRPA1 (Homo sapiens, UniProt O75762, V942A); calcium influx, agonist; baseline: V942A mutant over wild type): 1.3
C=CC(=O)N1CCCC(n2c(=O)c3ncccc3n(Cc3ccc(Oc4ccccc4)cc3)c2=O)C1 (stereo not drawn) — melting temperature (Acetyl-CoA acetyltransferase, cytosolic (Homo sapiens, UniProt Q9BWD1); thermal proteome profiling, item: ACAT2; treated): 52.9 °C and 53.1 °C
O=C1c2sc(-c3ccc(N4CCC(F)C4)nc3F)nc2CCN1c1cccnc1 (stereo not drawn) — specific binding (TAR DNA-binding protein 43, aggregated (TARDBP, Homo sapiens, UniProt Q13148); saturation autoradiography; human, FTLD-TDP type A brain sections; 8.29 nM): 55.7 nM
CCCCCC(O)/C=C/C=O (stereo not drawn) — isoTOP-ABPP competition ratio (HDAC6 (Homo sapiens, UniProt Q9UBN7); competitive isoTOP-ABPP; Ramos soluble proteome; 100 µM, added: iodoacetamide probe; baseline: DMSO over compound-treated, higher = stronger cysteine blockade): 1.1
CCCCCCCO[C@H]1CO[C@H](CO)[C@@H](O)[C@H](O)[C@@H]1O — ΔG (Type 1 fimbrin D-mannose specific adhesin, lectin domain (fimH, Escherichia coli K-12, UniProt P08191); binding, isothermal titration calorimetry; 25 °C, global fit of two titrations): -8.96 kcal/mol
COc1cc2ncnc(Nc3ccc(Oc4ccccc4C)cc3)c2cc1OC — activity (SMUG1 (Homo sapiens, UniProt Q53HV7); enzyme activity, activator, fluorescence; 2 µM; baseline: control): 120 ± 20%
O=C(NC1CCN(Cc2ccccc2)CC1)c1ccccc1O — remaining specific binding (Sodium- and chloride-dependent glycine transporter 2; MS binding competition; 10 µM): 77.7 ± 1.4%
Cc1cc(C(c2ccc(Cl)cc2)c2ccc(Cl)cc2)c2nccc(C)c2c1 — kon (GAP50; surface plasmon resonance): 5350 M⁻¹ s⁻¹
CC(C)Oc1cc(Cl)ccc1CNc1cc(-c2ccccc2)nc2ncnn12 — cAMP luminescence (GPR3 (Homo sapiens, UniProt P46089, Q211A); cAMP level, cAMP GloSensor; 10 pM; higher = more cAMP): 47600 a.u. and 35000 a.u. and 34800 a.u. and 38200 a.u.
O=C(O)Cc1cc2c(cc1C(=O)c1ccccc1I)OCO2 — current amplitude ratio (Gria1/Gria2; glutamate-evoked current, whole-cell patch clamp; HEK-293T; concentration not given; baseline: glutamate alone): 2.43 ± 0.2
Cc1cc(=O)oc2cc(NC(=O)CCCCCCCC(=O)NO)ccc12 — binding stoichiometry (HDAC8 (Homo sapiens, UniProt Q9BY41); ITC; phosphate buffer; concentration not given, pH 7.5): 0.8
OC[C@@H]1[C@@H](O)[C@H](O)[C@@H](O)c2nccn21 — -ΔS (bglA; ITC; pH 5.8, 25 °C): -0.189 ± 0.956 kcal/mol
CN(Cc1cc(C2CC2)on1)C(=O)c1cccc(-c2ccc3c(c2)CCO3)c1 — reaction rate (Acetyl-coenzyme A synthetase 2 (ACS2, Candida albicans, UniProt Q8NJN3); enzyme activity, inhibitor, coupled pyrophosphate; 5 µM; higher is more activity): 0.00309 a.u.
CC[C@H](C)[C@@H]1NC(=O)[C@H](Cc2ccccc2)NC(=O)[C@H](CCC(=O)O)NC(=O)[C@H](CCCNC(=N)N)NC(=O)CNC(=O)[C@@H](NC(=O)[C@H](CC(C)C)NC(=O)[C@H](CCCNC(=N)N)NC(=O)[C@@H](NC(=O)CNC(=O)[C@H](Cc2ccc(O)cc2)NC(=O)[C@@H]2CCCN2C(=O)[C@H](C)NC(=O)[C@H](C)NC(=O)[C@@H](N)CCCNC(=N)N)C(C)C)CSSC[C@@H]2NC(=O)[C@@H](NC(=O)[C@H](CO)NC(=O)[C@H](CO)NC(=O)[C@H](CO)NC(=O)[C@H](CC(C)C)NC(=O)CNC(=O)[C@H](C)NC(=O)[C@H](CC(C)C)NC(=O)[C@@H](NC(=O)[C@@H](N)CC(=O)O)C(C)C)CSSC[C@H](NC(=O)CNC(=O)[C@H](Cc3c[nH]c4ccccc34)NC(=O)[C@H](CCCCN)NC2=O)C(=O)N[C@@H](CO)C(=O)N[C@@H](CCCCN)C(=O)N[C@@H](CO)C(=O)N[C@@H](CCC(=O)O)C(=O)N[C@@H]([C@@H](C)CC)C(=O)N[C@@H](CO)C(=O)N[C@@H](CO)C(=O)N[C@@H](CC(C)C)C(=O)N[C@H](C(=O)O)CSSC[C@@H](C(=O)NCC(=O)NCC(=O)N[C@@H](CO)C(=O)N[C@@H](CCCNC(=N)N)C(=O)N[C@@H](Cc2c[nH]c3ccccc23)C(=O)O)NC(=O)[C@H]([C@@H](C)O)NC(=O)[C@H](Cc2ccccc2)NC(=O)[C@H]([C@@H](C)CC)NC(=O)[C@H](C(C)C)NC(=O)[C@H](C)NC(=O)[C@H](CCCNC(=N)N)NC1=O — change in pEC50 (RXFP4 (Homo sapiens, UniProt Q8TDU9, H299A); agonist; H299A mutant, unit not given; baseline: wild type): -1.57 and -2.41 and -1.51 and -2.46
CC(=O)NCCCC[C@H](NC(=O)CNC(=O)CNC(=O)[C@@H](NC(=O)[C@H](CO)NC(=O)[C@H](CCCCN)NC(=O)[C@H](CCCNC(=N)N)NC(=O)[C@H](C)NC(=O)[C@@H](NC(=O)[C@H](CCC(N)=O)NC(=O)[C@H](CCCCN)NC(=O)[C@@H](NC(=O)[C@@H](N)CCCNC(=N)N)[C@@H](C)O)[C@@H](C)O)[C@@H](C)O)C(=O)N[C@@H](C)C(=O)N1CCC[C@H]1C(=O)N[C@@H](CCCNC(=N)N)C(=O)N[C@@H](CCCCN)C(=O)N[C@@H](CCC(N)=O)C(=O)O — ΔTm (YEATS domain-containing protein 4 (Homo sapiens, UniProt O95619, E109A); differential scanning fluorimetry; added: 50 µM peptide; baseline: buffer-only reference): 0.19 ± 0.03 °C
O=C(N1CCCC1)n1cc(-c2ccc(-c3ccccc3)cc2)nn1 — activity ratio (Lysosomal phospholipase A and acyltransferase (Pla2g15, Mus musculus, UniProt Q8VEB4); enzyme activity, inhibitor, competitive ABPP-SILAC, item: Lypla3; mouse T-cells; concentration not given, 4 h, treated in situ; baseline: DMSO): 1.35
C[C@@H](O)c1ccc(NS(=O)(=O)c2ccc(Cl)c(Cl)c2)cc1 — Vmax (17-beta-hydroxysteroid dehydrogenase 13; substrate, NADH fluorescence): 0.07 nM NADH/s/nM enzyme
N#CN1CC[C@H](C(=O)Nc2nc3c(s2)CN(C(=O)Cn2cc(COCCOCCOCCOCCNC(=O)CCCC[C@@H]4SC[C@@H]5NC(=O)N[C@@H]54)nn2)CC3)C1 — iBAQ abundance (EEF1A1 (Homo sapiens, UniProt P68104); probe binding, affinity probe, neutravidin pull-down LC-MS/MS; HEK293T, cell lysate; 5 µM, 1 h, mean of three replicates, unit not given; higher = more pulled down): 5.24e+08
CCCCCCCCCCCCCCCC(=O)OCC(CSC[C@H](N)C(=O)N[C@@H](CO)C(=O)N[C@@H](CCCCN)C(=O)N[C@@H](CCCCN)C(=O)N[C@@H](CCCCN)C(=O)N[C@@H](CCCCN)C(=O)NCCCCCC(=O)N[C@@H](CCCCN)C(=O)N[C@@H](CC(C)C)C(=O)N[C@H](C(=O)N[C@@H](Cc1ccccc1)C(=O)N[C@@H](Cc1ccccc1)C(=O)N[C@@H](Cc1ccc2ccccc2c1)C(=O)O)C(C)C)OC(=O)CCCCCCCCCCCCCCC (stereo partly drawn) — fibril diameter (Amyloid-beta precursor protein, fibrillar amyloid-beta (APP, Homo sapiens, UniProt P05067); TEM; 2.0 eq, 18 h, fibril 5, added: APP 20 µM): 31.1 nm
COCCOc1cc2ncnc(Nc3cccc(-c4cn(-c5ccccc5S(N)(=O)=O)nn4)c3)c2cc1OCCOC — selectivity ratio (CA12; stopped-flow CO2 hydration; baseline: Ki hCA VI over Ki hCA XII): 2.15

Some of these lines once more:
O=C(NC[C@@H](Cc1ccc(F)cc1)N1CCC(O)(C(F)(F)F)CC1)C1(c2ccc(Cl)cc2)CCCC1 — EC50 fold change (TRPA1 (Homo sapiens, UniProt O75762, V942A); calcium influx, agonist; baseline: V942A mutant over wild type): 1.3
CC(C=CC=C(C)C=CC1=C(C)CCCC1(C)C)=CC=O — plasma membrane localization (Rhodopsin (RHO, Homo sapiens, UniProt P08100, T17M); immunostaining, item: opsin; COS-7 transfected; 0.05 µM, unit not given; baseline: surface over total stained cells): 0
